Assay results collected from several papers.
A part holds a random share of what one study measured.
Chain of UniProt Q9BYT3 (whole entry, looked up): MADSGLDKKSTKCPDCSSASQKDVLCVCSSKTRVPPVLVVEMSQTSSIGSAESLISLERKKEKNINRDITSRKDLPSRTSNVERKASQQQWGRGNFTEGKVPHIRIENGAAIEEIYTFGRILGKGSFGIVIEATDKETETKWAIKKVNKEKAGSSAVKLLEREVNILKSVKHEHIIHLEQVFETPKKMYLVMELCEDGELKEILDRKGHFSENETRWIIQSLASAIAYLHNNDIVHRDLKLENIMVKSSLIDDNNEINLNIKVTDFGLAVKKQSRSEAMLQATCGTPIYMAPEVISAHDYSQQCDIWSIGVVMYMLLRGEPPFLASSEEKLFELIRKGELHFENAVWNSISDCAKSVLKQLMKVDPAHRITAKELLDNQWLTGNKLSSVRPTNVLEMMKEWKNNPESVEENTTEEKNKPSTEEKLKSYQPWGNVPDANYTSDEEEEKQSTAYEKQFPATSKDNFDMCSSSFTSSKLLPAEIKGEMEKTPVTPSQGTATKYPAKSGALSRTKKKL
Chain of UniProt P27448 (whole entry, looked up): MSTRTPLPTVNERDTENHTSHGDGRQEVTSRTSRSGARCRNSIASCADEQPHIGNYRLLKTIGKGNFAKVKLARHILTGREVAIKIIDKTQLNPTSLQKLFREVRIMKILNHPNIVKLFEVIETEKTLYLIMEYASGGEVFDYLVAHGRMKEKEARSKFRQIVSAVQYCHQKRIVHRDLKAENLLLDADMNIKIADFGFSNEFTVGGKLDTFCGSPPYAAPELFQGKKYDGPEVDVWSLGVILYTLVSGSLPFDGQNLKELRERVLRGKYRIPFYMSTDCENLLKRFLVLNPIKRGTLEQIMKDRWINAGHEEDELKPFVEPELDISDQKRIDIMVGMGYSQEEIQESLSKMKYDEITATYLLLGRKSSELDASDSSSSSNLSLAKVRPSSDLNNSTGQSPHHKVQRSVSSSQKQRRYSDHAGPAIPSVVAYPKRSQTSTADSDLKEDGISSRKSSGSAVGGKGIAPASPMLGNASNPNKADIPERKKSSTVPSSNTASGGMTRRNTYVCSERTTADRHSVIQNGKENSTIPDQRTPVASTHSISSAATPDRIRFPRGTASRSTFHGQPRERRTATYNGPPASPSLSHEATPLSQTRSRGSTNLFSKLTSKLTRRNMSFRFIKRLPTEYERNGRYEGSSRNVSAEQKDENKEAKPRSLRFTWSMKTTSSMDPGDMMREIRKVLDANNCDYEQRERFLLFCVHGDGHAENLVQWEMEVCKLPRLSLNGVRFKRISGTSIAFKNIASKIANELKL
Chain of UniProt Q9UF33 (whole entry, looked up): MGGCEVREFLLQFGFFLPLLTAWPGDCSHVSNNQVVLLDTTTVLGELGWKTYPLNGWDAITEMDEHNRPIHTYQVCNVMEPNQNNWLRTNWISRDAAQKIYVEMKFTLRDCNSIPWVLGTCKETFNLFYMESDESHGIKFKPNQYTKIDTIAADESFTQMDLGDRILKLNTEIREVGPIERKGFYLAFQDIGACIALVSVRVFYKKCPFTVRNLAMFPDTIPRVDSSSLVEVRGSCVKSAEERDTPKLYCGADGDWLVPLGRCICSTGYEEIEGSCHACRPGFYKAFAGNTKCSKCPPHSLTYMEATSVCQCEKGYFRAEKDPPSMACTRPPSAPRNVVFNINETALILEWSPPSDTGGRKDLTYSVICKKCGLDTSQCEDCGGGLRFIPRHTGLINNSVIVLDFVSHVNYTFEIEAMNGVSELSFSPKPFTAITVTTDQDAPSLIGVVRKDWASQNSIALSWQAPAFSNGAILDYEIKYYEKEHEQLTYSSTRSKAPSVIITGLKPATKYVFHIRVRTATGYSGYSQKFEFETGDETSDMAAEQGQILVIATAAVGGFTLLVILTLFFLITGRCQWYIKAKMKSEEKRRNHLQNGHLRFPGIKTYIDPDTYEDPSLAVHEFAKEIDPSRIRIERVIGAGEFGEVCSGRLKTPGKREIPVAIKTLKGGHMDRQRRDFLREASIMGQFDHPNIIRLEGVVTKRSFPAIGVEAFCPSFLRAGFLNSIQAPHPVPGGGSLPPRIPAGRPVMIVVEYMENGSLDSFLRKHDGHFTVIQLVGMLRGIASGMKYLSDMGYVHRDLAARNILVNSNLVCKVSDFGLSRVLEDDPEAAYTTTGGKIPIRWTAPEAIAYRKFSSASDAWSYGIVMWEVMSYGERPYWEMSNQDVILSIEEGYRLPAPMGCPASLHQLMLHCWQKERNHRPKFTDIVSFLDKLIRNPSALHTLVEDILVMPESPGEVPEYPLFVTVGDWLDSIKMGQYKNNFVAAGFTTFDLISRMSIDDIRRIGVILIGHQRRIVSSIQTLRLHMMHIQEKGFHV
Chain of UniProt Q9BVS4 (whole entry, looked up): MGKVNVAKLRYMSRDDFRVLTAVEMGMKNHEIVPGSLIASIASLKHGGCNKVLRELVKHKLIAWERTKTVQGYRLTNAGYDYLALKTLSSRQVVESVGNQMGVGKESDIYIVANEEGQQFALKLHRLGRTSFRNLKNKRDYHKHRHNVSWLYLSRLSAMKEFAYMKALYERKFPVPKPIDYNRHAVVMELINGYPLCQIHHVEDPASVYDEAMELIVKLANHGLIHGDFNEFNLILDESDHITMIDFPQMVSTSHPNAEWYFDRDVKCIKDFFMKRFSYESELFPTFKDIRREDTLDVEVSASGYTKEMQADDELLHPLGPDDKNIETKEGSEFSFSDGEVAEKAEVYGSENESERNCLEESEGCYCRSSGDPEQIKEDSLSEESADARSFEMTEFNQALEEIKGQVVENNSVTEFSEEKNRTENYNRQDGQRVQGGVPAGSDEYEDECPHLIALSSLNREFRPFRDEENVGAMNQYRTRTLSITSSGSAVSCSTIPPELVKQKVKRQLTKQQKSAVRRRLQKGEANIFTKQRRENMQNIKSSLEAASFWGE
Chain of UniProt P23458 (whole entry, looked up): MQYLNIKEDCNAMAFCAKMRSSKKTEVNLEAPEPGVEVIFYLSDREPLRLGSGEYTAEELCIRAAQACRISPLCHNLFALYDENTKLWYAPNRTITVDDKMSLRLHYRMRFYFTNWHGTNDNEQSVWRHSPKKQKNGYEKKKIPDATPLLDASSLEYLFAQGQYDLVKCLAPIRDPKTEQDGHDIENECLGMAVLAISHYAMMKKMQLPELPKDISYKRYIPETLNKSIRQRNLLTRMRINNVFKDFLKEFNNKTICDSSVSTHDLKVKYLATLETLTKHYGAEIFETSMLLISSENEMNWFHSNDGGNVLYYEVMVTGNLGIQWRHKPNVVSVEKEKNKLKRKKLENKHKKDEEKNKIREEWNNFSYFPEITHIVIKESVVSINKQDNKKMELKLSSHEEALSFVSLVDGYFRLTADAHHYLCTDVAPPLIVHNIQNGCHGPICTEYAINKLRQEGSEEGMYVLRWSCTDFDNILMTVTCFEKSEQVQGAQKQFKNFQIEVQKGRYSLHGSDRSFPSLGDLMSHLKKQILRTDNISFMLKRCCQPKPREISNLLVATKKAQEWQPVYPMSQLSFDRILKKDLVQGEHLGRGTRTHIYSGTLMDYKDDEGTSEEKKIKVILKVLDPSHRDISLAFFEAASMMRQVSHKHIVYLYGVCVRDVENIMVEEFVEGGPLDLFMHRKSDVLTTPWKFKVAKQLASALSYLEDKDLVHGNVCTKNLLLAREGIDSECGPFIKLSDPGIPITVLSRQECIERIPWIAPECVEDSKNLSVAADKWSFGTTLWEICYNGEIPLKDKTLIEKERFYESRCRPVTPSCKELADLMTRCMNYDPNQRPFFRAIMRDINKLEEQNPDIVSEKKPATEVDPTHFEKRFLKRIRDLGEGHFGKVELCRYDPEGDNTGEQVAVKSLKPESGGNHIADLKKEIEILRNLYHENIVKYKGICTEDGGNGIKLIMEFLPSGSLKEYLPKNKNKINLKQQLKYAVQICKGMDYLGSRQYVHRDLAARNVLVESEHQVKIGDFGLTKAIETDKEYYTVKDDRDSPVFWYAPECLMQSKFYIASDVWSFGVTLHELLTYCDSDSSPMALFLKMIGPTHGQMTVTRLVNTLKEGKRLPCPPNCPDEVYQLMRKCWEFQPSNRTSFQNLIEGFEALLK
Chain of UniProt P23443 (whole entry, looked up): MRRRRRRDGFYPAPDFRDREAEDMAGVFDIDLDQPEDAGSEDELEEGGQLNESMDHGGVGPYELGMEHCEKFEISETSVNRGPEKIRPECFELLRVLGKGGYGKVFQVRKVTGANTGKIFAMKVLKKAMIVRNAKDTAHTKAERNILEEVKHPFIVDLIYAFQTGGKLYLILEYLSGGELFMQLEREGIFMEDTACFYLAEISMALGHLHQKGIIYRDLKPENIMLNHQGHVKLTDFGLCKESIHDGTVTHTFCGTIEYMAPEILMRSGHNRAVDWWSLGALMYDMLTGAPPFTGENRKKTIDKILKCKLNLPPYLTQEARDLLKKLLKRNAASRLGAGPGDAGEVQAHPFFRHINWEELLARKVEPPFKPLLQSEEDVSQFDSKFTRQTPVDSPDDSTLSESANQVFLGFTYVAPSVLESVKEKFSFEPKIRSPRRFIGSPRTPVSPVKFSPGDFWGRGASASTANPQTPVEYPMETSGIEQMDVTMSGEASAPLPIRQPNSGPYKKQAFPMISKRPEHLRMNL

Study 1 — observed: cell-free assay; method: competition with immobilised ligand; tested at: 1 µM; quantity: remaining binding
SMILES: O=C1CCc2cc(Nc3cc(OC4CCOCC4)c([N+](=O)[O-])cc3Cl)ccc2N1
target = Serine/threonine-protein kinase 33 (STK33, Homo sapiens, UniProt Q9BYT3); result = 77%
target = Serine/threonine-protein kinase mTOR (MTOR, Homo sapiens, UniProt P42345); result = 89%
target = Ephrin type-A receptor 6 (EPHA6, Homo sapiens, UniProt Q9UF33); result = 80%
target = Serine/threonine-protein kinase PAK 3 (PAK3, Homo sapiens, UniProt O75914); result = 100%
target = Ribosomal protein S6 kinase beta-1 (RPS6KB1, Homo sapiens, UniProt P23443); result = 100%
target = Serine/threonine-protein kinase RIO2 (RIOK2, Homo sapiens, UniProt Q9BVS4); result = 89%
target = MAP/microtubule affinity-regulating kinase 3 (MARK3, Homo sapiens, UniProt P27448); result = 100%
target = Myosin-IIIb (MYO3B, Homo sapiens, UniProt Q8WXR4); result = 97%
target = Tyrosine-protein kinase JAK1, JH1 (JAK1, Homo sapiens, UniProt P23458); result = 94%
target = Mitogen-activated protein kinase kinase kinase 10 (MAP3K10, Homo sapiens, UniProt Q02779); result = 94%

Study 2 — observed: enzyme activity; action: inhibitor; tested at: 0.5 µM; baseline: control; quantity: remaining activity
Target: Mitogen-activated protein kinase kinase kinase 20 (MAP3K20, Homo sapiens, UniProt Q9NYL2)
Compound = N#Cc1c(NC(=O)c2cccc3ccccc23)sc2c1CCCC2; result = 93.2%
Compound = CCOc1nc(NC(=O)Cc2cc(OC)ccc2OC)cc(N)c1C#N; result = 90.4%
Compound = Cc1cc2ncc(-c3ccccc3)nc2cc1C; result = 102%
Compound = CCN(CC)CCNC(=O)c1c(C)[nH]c(/C=C2\C(=O)Nc3ccc(Cl)cc32)c1C; result = 95.8%
Compound = CN([C@@H](Cc1ccc(OS(=O)(=O)c2cccc3cnccc23)cc1)C(=O)N1CCN(c2ccccc2)CC1)S(=O)(=O)c1cccc2cnccc12; result = 103%
Compound = O=C1c2ccccc2-c2n[nH]c3cccc1c23; result = 75.5%

Study 3 — target: UBE2G2 UBC core domain (UniProt P60604); method: yeast two-hybrid; matrix: yeast; notes: mostly zero background; baseline: not given; reading: higher = stronger interaction; quantity: lacZ reporter activity
B1: RNF149 RING domain (UniProt Q8NC42); chain EKGIDVDAENCAVCIENFKVKDIIRILPCKHIFHRICIDPWLLDHRTCPMCKLDVIKALGYW
B2: TRIM38 RING domain (UniProt O00635); chain STKKMMEEATCSICLSLMTNPVSINCGHSYCHLCITDFFKNPSQKQLRQETFCCPQCRAPFHMDSLRP
B3: RNF4 RING domain (UniProt P78317); chain TGLRPSGTVSCPICMDGYSEIVQNGRLIVSTECGHVFCSQCLRDSLKNANTCPTCRKKINHKRYHP
B4: RNF150 RING domain (UniProt Q9ULK6); chain DKETESDFDNCAVCIEGYKPNDVVRILPCRHLFHKSCVDPWLLDHRTCPMCKMNILKALGIP
B5: TRIM15 RING domain (UniProt Q9C019); chain SLKVVHELPACTLCAGPLEDAVTIPCGHTFCRLCLPALSQMGAQSSGKILLCPLCQEEEQAETPMA
B6: TRIM35 RING domain (UniProt Q9UPQ4); chain PSRSFKEELLCAVCYDPFRDAVTLRCGHNFCRGCVSRCWEVQVSPTCPVCKDRASPADLRT
Construct (chain): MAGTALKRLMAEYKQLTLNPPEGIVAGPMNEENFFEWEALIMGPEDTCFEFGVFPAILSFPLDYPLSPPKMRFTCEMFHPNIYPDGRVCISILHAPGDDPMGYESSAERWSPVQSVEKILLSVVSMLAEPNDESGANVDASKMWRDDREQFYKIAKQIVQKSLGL
Sequence = B1 (RNF149 RING domain); result = 0
Sequence = B2 (TRIM38 RING domain); result = 0
Sequence = LKQVSIRENCCSLCCDEVADTQLKPCGHSDLCMDCALQLETCPLCRKEIVSRIRQI (RSPRY1 RING domain (UniProt Q96DX4)); result = 14400
Sequence = B3 (RNF4 RING domain); result = 2150
Sequence = B4 (RNF150 RING domain); result = 0
Sequence = B5 (TRIM15 RING domain); result = 0
Sequence = B6 (TRIM35 RING domain); result = 0
Sequence = ISNDSETLEECMVCSDMKRDTLFGPCGHIATCSLCSPRVKKCLICKEQVQSRTKIE (MIB1 RING domain (UniProt Q86YT6)); result = 0

Mixed results
SMILES = CCC[C@H]1NC(=O)CSC[C@@H](C(=O)OCC)N(C)C(=O)[C@H](CC(C)C)NC(=O)[C@@H](C)N(C)C(=O)[C@@H](CC(C)C)NC(=O)[C@H](C)N(C)C(=O)[C@H]2CCCN2C(=O)[C@@H](CC(C)C)NC(=O)CN(C)C1=O; test system = hydrocarbon/water; quantity = logD; result = -0.132

Repeated from above (study 2):
Compound = CCOc1nc(NC(=O)Cc2cc(OC)ccc2OC)cc(N)c1C#N; result = 90.4%
Compound = CN([C@@H](Cc1ccc(OS(=O)(=O)c2cccc3cnccc23)cc1)C(=O)N1CCN(c2ccccc2)CC1)S(=O)(=O)c1cccc2cnccc12; result = 103%
Compound = Cc1cc2ncc(-c3ccccc3)nc2cc1C; result = 102%
